Published values gathered from unrelated publications.
Every numbered part comes from another study and shows a few of its results, in no order. Values joined by “and” are separate records of one study, mostly repeats; a detail may differ.
Chain of UniProt P52564 (whole entry, looked up): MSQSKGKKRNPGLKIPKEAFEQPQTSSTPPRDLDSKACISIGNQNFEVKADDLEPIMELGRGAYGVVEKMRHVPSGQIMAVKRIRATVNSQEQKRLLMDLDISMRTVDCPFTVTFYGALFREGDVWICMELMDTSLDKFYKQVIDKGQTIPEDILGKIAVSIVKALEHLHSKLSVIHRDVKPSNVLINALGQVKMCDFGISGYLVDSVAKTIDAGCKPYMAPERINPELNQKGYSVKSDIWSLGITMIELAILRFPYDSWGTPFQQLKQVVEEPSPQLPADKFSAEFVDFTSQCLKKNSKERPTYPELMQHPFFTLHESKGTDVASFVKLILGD
Chain of UniProt O14757 (whole entry, looked up): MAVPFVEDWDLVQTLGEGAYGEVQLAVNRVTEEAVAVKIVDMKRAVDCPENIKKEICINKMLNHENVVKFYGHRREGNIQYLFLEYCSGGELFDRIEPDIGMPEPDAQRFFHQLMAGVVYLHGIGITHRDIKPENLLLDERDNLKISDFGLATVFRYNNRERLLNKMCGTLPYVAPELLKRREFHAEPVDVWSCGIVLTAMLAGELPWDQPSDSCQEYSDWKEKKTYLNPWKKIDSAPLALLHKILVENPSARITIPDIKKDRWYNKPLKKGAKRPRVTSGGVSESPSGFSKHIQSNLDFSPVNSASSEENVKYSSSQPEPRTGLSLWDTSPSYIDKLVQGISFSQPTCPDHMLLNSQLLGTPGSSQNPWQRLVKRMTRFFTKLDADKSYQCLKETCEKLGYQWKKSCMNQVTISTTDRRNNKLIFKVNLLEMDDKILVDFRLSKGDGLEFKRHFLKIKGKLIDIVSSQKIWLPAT
Chain of UniProt P51957 (whole entry, looked up): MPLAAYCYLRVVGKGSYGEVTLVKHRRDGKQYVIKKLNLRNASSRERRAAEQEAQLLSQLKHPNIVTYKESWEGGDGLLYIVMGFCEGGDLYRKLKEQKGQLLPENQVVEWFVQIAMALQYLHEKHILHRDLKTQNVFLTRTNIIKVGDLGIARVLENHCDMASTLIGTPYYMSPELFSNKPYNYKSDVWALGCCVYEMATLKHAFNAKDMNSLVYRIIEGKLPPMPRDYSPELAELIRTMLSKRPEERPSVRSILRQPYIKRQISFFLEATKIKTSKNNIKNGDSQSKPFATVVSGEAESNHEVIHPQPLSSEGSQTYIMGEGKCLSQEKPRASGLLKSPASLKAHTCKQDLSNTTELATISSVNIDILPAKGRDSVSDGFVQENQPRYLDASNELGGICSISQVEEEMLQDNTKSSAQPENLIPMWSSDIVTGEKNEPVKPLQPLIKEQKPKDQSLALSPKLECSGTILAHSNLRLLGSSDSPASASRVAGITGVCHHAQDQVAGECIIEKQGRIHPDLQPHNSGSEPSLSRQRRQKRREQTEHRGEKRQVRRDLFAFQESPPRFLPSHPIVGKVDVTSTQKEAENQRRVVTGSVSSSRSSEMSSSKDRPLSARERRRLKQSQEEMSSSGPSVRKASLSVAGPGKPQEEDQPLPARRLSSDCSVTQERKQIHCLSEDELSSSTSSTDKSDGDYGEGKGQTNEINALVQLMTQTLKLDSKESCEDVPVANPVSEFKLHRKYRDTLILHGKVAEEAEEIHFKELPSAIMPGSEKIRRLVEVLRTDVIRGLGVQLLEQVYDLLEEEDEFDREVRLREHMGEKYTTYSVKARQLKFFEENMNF
Chain of UniProt P10721 (whole entry, looked up): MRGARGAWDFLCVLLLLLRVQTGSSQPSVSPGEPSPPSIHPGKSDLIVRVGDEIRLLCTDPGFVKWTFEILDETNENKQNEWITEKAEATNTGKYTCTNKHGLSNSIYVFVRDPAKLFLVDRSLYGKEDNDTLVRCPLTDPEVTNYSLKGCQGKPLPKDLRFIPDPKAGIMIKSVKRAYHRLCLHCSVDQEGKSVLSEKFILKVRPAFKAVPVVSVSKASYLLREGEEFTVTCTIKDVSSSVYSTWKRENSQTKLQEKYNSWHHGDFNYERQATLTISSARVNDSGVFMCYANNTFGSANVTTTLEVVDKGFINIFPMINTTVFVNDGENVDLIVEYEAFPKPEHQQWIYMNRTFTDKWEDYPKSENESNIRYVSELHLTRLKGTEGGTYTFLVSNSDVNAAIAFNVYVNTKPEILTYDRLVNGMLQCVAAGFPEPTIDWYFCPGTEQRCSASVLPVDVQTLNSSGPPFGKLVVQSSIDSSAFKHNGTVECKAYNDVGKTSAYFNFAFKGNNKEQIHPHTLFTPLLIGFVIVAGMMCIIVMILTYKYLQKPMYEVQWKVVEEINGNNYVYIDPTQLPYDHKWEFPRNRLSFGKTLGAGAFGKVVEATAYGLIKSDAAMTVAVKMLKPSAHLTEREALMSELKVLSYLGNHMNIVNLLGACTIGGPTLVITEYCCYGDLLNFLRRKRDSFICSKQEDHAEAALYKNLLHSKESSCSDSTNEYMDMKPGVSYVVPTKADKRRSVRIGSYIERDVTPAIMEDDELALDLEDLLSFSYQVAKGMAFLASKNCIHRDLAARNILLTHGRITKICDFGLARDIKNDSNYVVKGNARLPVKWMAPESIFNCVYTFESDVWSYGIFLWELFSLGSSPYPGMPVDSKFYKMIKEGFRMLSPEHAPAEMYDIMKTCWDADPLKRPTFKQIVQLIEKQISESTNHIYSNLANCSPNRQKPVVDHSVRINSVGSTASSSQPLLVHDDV
Chain of UniProt Q06187 (whole entry, looked up): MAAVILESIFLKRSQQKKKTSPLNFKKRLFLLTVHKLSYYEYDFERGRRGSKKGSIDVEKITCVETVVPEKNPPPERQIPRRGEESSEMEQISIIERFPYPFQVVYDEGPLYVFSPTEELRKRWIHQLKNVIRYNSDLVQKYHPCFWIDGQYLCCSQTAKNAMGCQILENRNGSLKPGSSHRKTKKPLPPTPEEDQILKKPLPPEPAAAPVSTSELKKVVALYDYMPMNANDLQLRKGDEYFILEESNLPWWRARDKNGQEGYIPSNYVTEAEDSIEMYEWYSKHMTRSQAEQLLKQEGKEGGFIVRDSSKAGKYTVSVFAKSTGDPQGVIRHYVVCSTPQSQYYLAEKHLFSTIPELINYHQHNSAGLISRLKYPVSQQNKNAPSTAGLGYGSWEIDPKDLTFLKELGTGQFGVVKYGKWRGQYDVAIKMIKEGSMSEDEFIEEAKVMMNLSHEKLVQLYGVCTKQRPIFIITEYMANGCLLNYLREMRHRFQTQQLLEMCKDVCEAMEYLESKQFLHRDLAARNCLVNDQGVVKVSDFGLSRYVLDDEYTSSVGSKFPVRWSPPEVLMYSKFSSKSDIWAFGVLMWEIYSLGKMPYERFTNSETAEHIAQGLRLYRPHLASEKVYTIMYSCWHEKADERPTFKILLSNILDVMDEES
Chain of UniProt Q05655 (whole entry, looked up): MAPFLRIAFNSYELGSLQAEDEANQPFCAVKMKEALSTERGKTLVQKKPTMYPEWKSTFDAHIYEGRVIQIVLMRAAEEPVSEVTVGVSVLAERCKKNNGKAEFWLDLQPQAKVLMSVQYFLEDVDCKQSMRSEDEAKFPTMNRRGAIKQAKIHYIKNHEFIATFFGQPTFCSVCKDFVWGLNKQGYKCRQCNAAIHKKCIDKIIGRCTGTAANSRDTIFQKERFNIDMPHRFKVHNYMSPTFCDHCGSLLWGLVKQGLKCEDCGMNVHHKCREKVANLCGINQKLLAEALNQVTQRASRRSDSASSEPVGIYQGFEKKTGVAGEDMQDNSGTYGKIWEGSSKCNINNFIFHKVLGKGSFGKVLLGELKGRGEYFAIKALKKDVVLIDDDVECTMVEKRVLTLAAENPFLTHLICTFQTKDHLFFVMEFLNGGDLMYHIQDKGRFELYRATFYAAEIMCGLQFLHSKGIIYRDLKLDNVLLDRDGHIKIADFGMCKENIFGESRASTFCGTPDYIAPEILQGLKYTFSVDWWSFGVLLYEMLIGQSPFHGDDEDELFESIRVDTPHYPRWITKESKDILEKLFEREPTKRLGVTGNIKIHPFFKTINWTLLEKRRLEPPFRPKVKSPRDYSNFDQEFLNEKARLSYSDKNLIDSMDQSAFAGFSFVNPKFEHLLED

Series 1 — organism: Sarcocystis neurona; effect on: parasite growth; tested at: 10 µM; time: 96 h; notes: first screen; measurement: inhibition
CC1=NS(=O)(=O)c2cc(Cl)ccc2N1: -1.3%
CN(C)CCc1c[nH]c2ccc(Cn3cncn3)cc12: -6.1%
CC(C(O)c1ccc(O)cc1)N1CCC(Cc2ccccc2)CC1 (centres unmarked): 7.7%
CN(C)CC[C@@H](c1ccc(Cl)cc1)c1ccccn1: -10.3%
CC(=O)OCC(=O)[C@@]1(O)CC[C@H]2[C@@H]3CCC4=CC(=O)C=C[C@]4(C)[C@H]3[C@@H](O)C[C@@]21C: -15.7%
COc1cc(C(=O)NS(=O)(=O)c2ccccc2C)ccc1Cc1cn(C)c2ccc(NC(=O)OC3CCCC3)cc12: 12.9%
Cc1onc(-c2ccccc2)c1-c1ccc(S(N)(=O)=O)cc1: -9.5%
CC(=O)CCCCn1c(=O)c2c(ncn2C)n(C)c1=O: -8%
O=C(O)c1cc(-c2ccc(F)cc2F)ccc1O: -6.3%
CN(CCOc1ccc(NS(C)(=O)=O)cc1)CCc1ccc(NS(C)(=O)=O)cc1: -1.6%
CN(C)CCCSc1ccccc1NC(=O)/C=C/c1ccccc1: 25.1%
CCN1CCCC1CNC(=O)c1cc(S(=O)(=O)CC)c(N)cc1OC (centres unmarked): 2.9%

Series 2 — effect on: binding; technique: radioligand binding; tested at: 10 µM; measurement: inhibition
Target: 5-hydroxytryptamine receptor 7 (HTR7, Homo sapiens, UniProt P34969)
Chain of UniProt P34969 (whole entry, looked up): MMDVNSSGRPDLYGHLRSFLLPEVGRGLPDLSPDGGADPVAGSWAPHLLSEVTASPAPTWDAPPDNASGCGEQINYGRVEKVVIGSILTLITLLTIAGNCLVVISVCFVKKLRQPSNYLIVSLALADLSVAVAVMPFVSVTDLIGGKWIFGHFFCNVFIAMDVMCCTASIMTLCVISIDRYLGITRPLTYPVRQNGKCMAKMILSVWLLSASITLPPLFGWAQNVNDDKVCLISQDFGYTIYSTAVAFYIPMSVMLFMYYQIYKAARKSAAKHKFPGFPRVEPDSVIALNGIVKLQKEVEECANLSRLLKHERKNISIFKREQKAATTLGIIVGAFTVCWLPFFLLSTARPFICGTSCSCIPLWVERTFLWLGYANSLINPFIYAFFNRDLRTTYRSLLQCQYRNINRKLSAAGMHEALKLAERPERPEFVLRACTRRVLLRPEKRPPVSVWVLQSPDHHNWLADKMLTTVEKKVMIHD
CNC(=O)c1ccc(Nc2ncc(C(F)(F)F)c(NCc3nccnc3N(C)S(C)(=O)=O)n2)cc1: 5.31%
O=C(Nc1cccnn1)N1CCC(=Cc2cccc(Oc3ccc(C(F)(F)F)cn3)c2)CC1: 37.5%
CC(=O)N1CCC(c2ccc(C(=O)NC(=N)N)cc2C(F)(F)F)CC1: 16.3%
Cc1nccc(COC(=O)N2C[C@@H]3[C@@H](CNC(=O)c4ccc5[nH]nnc5c4)[C@@H]3C2)n1: 9.56%
Cc1cc(C)c(-n2ccn3nc(-c4cccnc4)cc23)cc1NC(=O)c1cc(C#N)cc(S(F)(F)(F)(F)F)c1: -3.4%
C[C@@H]1CN(c2cc(-c3nn(C)c4ccc(OC5(C)CC5)cc34)ncn2)C[C@H](C)O1: -0.4%
CN1CCN(C(=O)C(C)(C)c2ccc(C(=O)Nc3cn4cc(-c5ccncc5)ccc4n3)cc2)CC1: -5.21%
CC(=O)Nc1nc(CN2CCC[C@H](Cc3cc(C)nc(C)c3)C2)cs1: 2.58%
O=C(Nc1cccnn1)N1CC(CC=Cc2cncc(Oc3ccc(C(F)(F)F)cn3)n2)C1: 1.18%
O=C(NC[C@@H]1[C@H]2CN(C(=O)OCc3cc(C(F)(F)F)cc(C(F)(F)F)c3)C[C@@H]12)c1ccc2[nH]nnc2c1: 19%
CC(=O)c1c(NS(C)(=O)=O)c2cc(-c3ccc(Cl)cc3)c(-c3ccc(Cl)cc3Cl)nc2n(C)c1=O: -18%
O=C(Nc1ccc(-n2nc(-c3cccnc3)cc2C(F)(F)F)cn1)c1ccc(-c2ccccc2)c(F)c1: 6.21%
Cc1c(N2CCCC2)nc2ccc(Br)cc2c1C(=O)NC[C@H](CCC(=O)O)c1ccccc1Cl: 0.4%

Series 3 — measurement: inhibition
Structure (SMILES): Cc1cc2c(C(N)=O)c(N)n(-c3c(C)ccc(O)c3C)c2nc1C
SRC: Proto-oncogene tyrosine-protein kinase Src (SRC, Homo sapiens, UniProt P12931)
SRC; kinase activity, HTRF; 10 µM: 101%
MDA-MB-436; cell proliferation; 10000 nM: 95.6%
U-251 MG; cell growth; 3333.33 nM: 83.5%
SW1463; cell proliferation; 1.52 nM: -0.78% and -1.41%
NCI-H1648; cell proliferation; 41.15 nM: -23.2% and -33% and -32.4%
NCI-H1648; cell proliferation; 4.572 nM: -21.7% and -23.3% and -18%
NCI-H1568; cell proliferation; 1111.11 nM: 42.8% and 41.1%
SRC; kinase activity, HTRF; 0.001524 µM: 19.6%
HCC1569; automated capillary immunoblot, refers to: CDK1 phospho-Thr14; 0.15 nM: 15.3%
HCC1569; automated capillary immunoblot, refers to: CDK1 phospho-Thr14; 111.11 nM: 65.6%

Series 4 — effect on: enzyme activity; action: inhibitor; tested at: 0.5 µM; baseline: control; measurement: remaining activity
Structure (SMILES): O=C1Cc2c([nH]c3ccc([N+](=O)[O-])cc23)-c2ccccc2N1
LYN (Homo sapiens, UniProt P07948): 37.2%
MAP3K10 (Homo sapiens, UniProt Q02779): 48.6%
MKNK2 (Homo sapiens, UniProt Q9HBH9): 92.9%
IRAK4 (Homo sapiens, UniProt Q9NWZ3): 167%
CHEK1 (Homo sapiens, UniProt O14757): 37.5%
MAP2K6 (Homo sapiens, UniProt P52564): 98.3%
PLK2 (Homo sapiens, UniProt Q9NYY3): 106%
WNK2 (Homo sapiens, UniProt Q9Y3S1): 116%
LRRK2 (Homo sapiens, UniProt Q5S007): 96.5%
AKT3 (Homo sapiens, UniProt Q9Y243): 94.1%
NEK4 (Homo sapiens, UniProt P51957): 109%
EPHA5 (Homo sapiens, UniProt P54756): 98.6%
MAP4K2 (Homo sapiens, UniProt Q12851): 8.77%
Cyclin-dependent kinase 9, with cyclin T1 (CDK9, Homo sapiens, UniProt P50750): 22.6%
PRKCD (Homo sapiens, UniProt Q05655): 79.8%
PRKG1 (Homo sapiens, UniProt Q13976): 94.3%
MAPK12 (Homo sapiens, UniProt P53778): 112%
KIT (Homo sapiens, UniProt P10721): 83.7%
BTK (Homo sapiens, UniProt Q06187): 98.2%
CSNK2A1 (Homo sapiens, UniProt P68400): 86.8%
CSNK1A1 (Homo sapiens, UniProt P48729): 103%

Excerpt of the above (series 4):
MKNK2 (Homo sapiens, UniProt Q9HBH9): 92.9%
IRAK4 (Homo sapiens, UniProt Q9NWZ3): 167%
CHEK1 (Homo sapiens, UniProt O14757): 37.5%
MAP2K6 (Homo sapiens, UniProt P52564): 98.3%
